Results gathered from unrelated publications.
Protocols differ between the studies behind these lines. Numbers after ± are the reported error.

| SMILES | assay | test system | conditions | tissue uptake |
| --- | --- | --- | --- | --- |
| CC(C)[C@H](NC(=O)[C@@H]1CCCN1C(=O)[C@H](CCCNC(=N)N)NC(=O)[C@H](CS)NC(=O)[C@H](Cc1c[nH]c2ccccc12)NC(=O)[C@H](CCCNC(=N)N)NC(=O)[C@@H](Cc1ccccc1)NC(=O)[C@H](Cc1c[nH]cn1)NC(=O)[C@H](CCC(=O)O)NC(=O)[C@H](CS)NC(=O)[C@H](CS)NC(=O)CNC(=O)[C@@H]1CC(=O)N[C@@H](CCCNC(=N)N)C(=O)NCC(=O)N[C@@H](CC(=O)O)C(=O)N[C@H](Cc2ccc(O)cc2)C(=O)N1)C(N)=O [technetium-99m labelled] |  | C57 mouse, female, B16/F1 melanoma, stomach | intravenous, 0.037 MBq, 2 h | 3.43 ± 0.69 %ID/g |
| O=C(O)CCC(NP(=O)(O)OCCC[C@@H](NC(=O)CC[C@H](NC(=O)CCCCCNC(=O)c1ccc([18F])cc1)C(=O)O)C(=O)O)C(=O)O (stereo partly drawn) |  | mouse, CWR22Rv1 xenograft, bone | dose not given, 4 h, blocking agent pre-dosed | 0.041 ± 0.007 %ID/g |
| CC(C)[C@H](NC(=O)[C@@H]1CCCN1C(=O)[C@H](CCCNC(=N)N)NC(=O)[C@H](CS)NC(=O)[C@H](Cc1c[nH]c2ccccc12)NC(=O)[C@H](CCCNC(=N)N)NC(=O)[C@@H](Cc1ccccc1)NC(=O)[C@H](Cc1c[nH]cn1)NC(=O)[C@H](CCC(=O)O)NC(=O)[C@H](CS)NC(=O)[C@H](CS)NC(=O)COCCOCCNC(=O)[C@@H]1CC(=O)N[C@@H](CCCNC(=N)N)C(=O)NCC(=O)N[C@@H](CC(=O)O)C(=O)N[C@H](Cc2ccc(O)cc2)C(=O)N1)C(N)=O [technetium-99m labelled] |  | nude mouse, M21 melanoma xenograft, stomach | intravenous, 2 h | 0.66 ± 0.19 %ID/g |
| COC(=O)c1ccc(-c2cn(Cc3cc(Cl)ccc3O[11CH3])nn2)cc1 | PET/CT | C57BL/6 mouse, kidney | 60 min | 6.19 %ID/cc |
| CC[C@H](C)[C@H](NC(=O)[C@H](C)NC(=O)[C@H](CC(C)C)NC(=O)[C@H](Cc1ccc(O)c(I)c1)NC(C)=O)C(=O)NCCCCCC(=O)N1CCC[C@H]1C(=O)N[C@@H](C)C(=O)N[C@@H](CC(=O)O)C(=O)N[C@@H](CCC(=O)O)C(=O)N[C@H](C(=O)N[C@@H](CC(=O)O)C(=O)NCC(=O)N[C@@H](CCCNC(=N)N)C(=O)N[C@@H](CCCNC(=N)N)C(=O)N[C@@H](CCCNC(=N)N)C(=O)N[C@@H](CCCN)C(=O)N[C@@H](CCCNC(=N)N)C(=O)N[C@@H](CCCNC(=N)N)C(=O)N[C@@H](CCCCN)C(=O)N[C@@H](CCCCN)C(=O)N[C@@H](CCCNC(=N)N)C(=O)N[C@@H](CCCCNC(=O)CN1CCN(CC(=O)O)CCN(CC(=O)O)CCN(CC(=O)O)CC1)C(N)=O)C(C)C [iodine-125 labelled] |  | BALB/c mouse, female, blood | intravenous, 0.185 MBq, 1 h | 3.2 ± 0.9 %ID/g |
| CC(C)[C@H](NC(=O)[C@@H]1CCCN1C(=O)[C@H](CCCNC(=N)N)NC(=O)[C@H](CS)NC(=O)[C@H](Cc1c[nH]c2ccccc12)NC(=O)[C@H](CCCNC(=N)N)NC(=O)[C@@H](Cc1ccccc1)NC(=O)[C@H](Cc1c[nH]cn1)NC(=O)[C@H](CCC(=O)O)NC(=O)[C@H](CS)NC(=O)[C@H](CS)NC(=O)[C@@H]1CC(=O)N[C@@H](CCCNC(=N)N)C(=O)NCC(=O)N[C@@H](CC(=O)O)C(=O)N[C@H](Cc2ccc(O)cc2)C(=O)N1)C(N)=O [technetium-99m labelled] |  | C57 mouse, female, B16/F1 melanoma, pancreas | intravenous, 0.037 MBq, 2 h | 0.29 ± 0.1 %ID/g |
| O=C([O-])CN1CCN(CC(=O)[O-])CCN(CC(=O)NCCc2ccc3c(c2)C2C=CCC2C(c2cc4c(cc2Br)OCO4)N3)CCN(CC(=O)[O-])CC1.[111In+3] (stereo not drawn) |  | mouse, Hec50 endometrial tumour, heart | 1 h post injection | 1.46 ± 0.19 %ID/g |
| CN(C)c1ccc(-c2nc3ccc(OCCCCCN4CCN5CCN(CC4)CC(=O)[O][Al]([18F])[O]C(=O)C5)cc3s2)cc1 |  | ICR mouse, liver | intravenous, 30 min | 77.2 ± 7.73 %ID/g |
| CCCC[C@H](NC(=O)CN1CCC(NC(=O)CN2CCN(CC(=O)O)CCN(CC(=O)O)CCN(CC(=O)O)CC2)CC1)C(=O)N[C@H]1CC(=O)NCCCC[C@@H](C(N)=O)NC(=O)[C@H](Cc2c[nH]c3ccccc23)NC(=O)[C@H](CCCNC(=N)N)NC(=O)[C@@H](Cc2ccccc2)NC(=O)[C@H](Cc2c[nH]cn2)NC1=O [gallium-68 labelled] | biodistribution | C57BL/6J mouse male tumour-bearing, seminal vesicle | 1 h post injection, unblocked | 0.3 ± 0.1 %ID/g |
| CCCC[C@@H]1NC(=O)[C@@H](NC(=O)[C@H](CCC(=O)O)NC(=O)CNC(=O)CN2CCN(CC(=O)O)CCN(CC(=O)O)CCN(CC(=O)O)CC2)CCCCNC(=O)C[C@@H](C(N)=O)NC(=O)[C@H](C(C)C)NC(=O)[C@@H]2CCCN2C(=O)[C@H](CCCNC(=N)N)NC(=O)CNC(=O)[C@H](Cc2c[nH]c3ccccc23)NC(=O)[C@H](CCCNC(=N)N)NC(=O)[C@@H](Cc2ccccc2)NC(=O)[C@H](Cc2c[nH]cn2)NC(=O)[C@H](CCC(=O)O)NC1=O [gallium-67 labelled] |  | C57 mouse, B16/F1 melanoma-bearing, kidney | 0.037 MBq, 2 h, added: L-lysine 15 mg co-injected | 8.32 ± 5.18 %ID/g |
| CC(C)C[C@H](NC(=O)C[C@H](O)[C@H](CC(C)C)NC(=O)[C@H](Cc1c[nH]cn1)NC(=O)CNC(=O)[C@@H](NC(=O)[C@H](C)NC(=O)[C@H](Cc1c[nH]c2ccccc12)NC(=O)[C@H](CCC(N)=O)NC(=O)[C@@H](Cc1ccccc1)NC(=O)CCNC(=O)CCNC(=O)CN1CCN(CC(=O)O)CCN(CC(=O)O)CCN(CC(=O)O)CC1)C(C)C)C(N)=O [lutetium-177 labelled] |  | mouse PC-3 xenograft, tumour | intraperitoneal, 200 pmol, 1 h, without PA | 8.9 ± 2.4 %ID/g |
| CCCC[C@H](NC(=O)CNC(=O)CNC(=O)CN1CCN(CC(=O)O)CCN(CC(=O)O)CCN(CC(=O)O)CC1)C(=O)N[C@H]1CC(=O)NCCCC[C@@H](C(N)=O)NC(=O)[C@H](Cc2c[nH]c3ccccc23)NC(=O)[C@H](CCCNC(=N)N)NC(=O)[C@@H](Cc2ccccc2)NC(=O)[C@H](Cc2c[nH]cn2)NC1=O [copper-64 labelled] |  | female C57 mouse, B16/F1 melanoma, lung | intravenous, 0.037 MBq, 4 h | 4.39 ± 0.36 %ID/g |

A few entries again:
| SMILES | assay | test system | conditions | tissue uptake |
| --- | --- | --- | --- | --- |
| O=C([O-])CN1CCN(CC(=O)[O-])CCN(CC(=O)NCCc2ccc3c(c2)C2C=CCC2C(c2cc4c(cc2Br)OCO4)N3)CCN(CC(=O)[O-])CC1.[111In+3] (stereo not drawn) |  | mouse, Hec50 endometrial tumour, heart | 1 h post injection | 1.46 ± 0.19 %ID/g |
